Results pooled from the literature.
Parts stem from different laboratories: compare values within a part only.

Series 1
Cell line: HEK-293T/ACE2
Observed: pseudovirus infection
Organism: VSV pseudotyped with SARS-CoV-2 spike
Concentration: concentration not given
Baseline: vehicle-treated
Measurement: GFP-positive cells
O=C(/C=C/c1cccc(S(=O)(=O)Nc2ccccc2)c1)NO: 49.2%
Nc1nc2[nH]cc(CCc3ccc(C(=O)N[C@@H](CCC(=O)[O-])C(=O)[O-])cc3)c2c(=O)[nH]1.Nc1nc2[nH]cc(CCc3ccc(C(=O)N[C@@H](CCC(=O)[O-])C(=O)[O-])cc3)c2c(=O)[nH]1.O.O.O.O.O.[Na+].[Na+].[Na+].[Na+]: 62.3%
CC[C@H]1OC(=O)[C@H](C)[C@@H](O[C@H]2C[C@@](C)(OC)[C@@H](O)[C@H](C)O2)[C@H](C)[C@@H](O[C@@H]2O[C@H](C)C[C@H](N(C)C)[C@H]2O)[C@](C)(O)C[C@@H](C)CN(C)[C@H](C)[C@@H](O)[C@]1(C)O: 64.1%

Series 2
Target: Replicase polyprotein 1ab, polymerase (rep, Severe acute respiratory syndrome coronavirus 2, UniProt P0DTD1)
Observed: enzyme activity
Action: inhibitor
Concentration: 20 µM
Measurement: inhibition
Cc1nc(-c2cn3c(n2)-c2ccc(-c4cnn(C(C)(C)C(N)=O)c4)cc2OCC3)n(C(C)C)n1: 5.73%
O=C1C=CC[C@@H]2[C@H]3CCCN4CCC[C@@H](CN12)[C@@H]34: -2.4%
Cc1cccc(Cc2c[nH]cn2)c1C: -2.28%
CC(=O)O[C@]1(C(C)=O)CC[C@H]2[C@@H]3C=C(Cl)C4=CC(=O)[C@@H]5C[C@@H]5[C@]4(C)[C@H]3CC[C@@]21C: 5.86%
NC(=O)c1nc(Nc2ccccc2)sc1NC(=O)C1CCCCC1: -2.23%
CCCCN(CCCC)CC(O)c1cc(Cl)cc2c1-c1ccc(Cl)cc1/C2=C/c1ccc(Cl)cc1 (centres unmarked): -2.7%
Cc1c(Cl)cccc1Nc1ccccc1C(=O)O: 23.7%
CC(C)NC(=O)N1CC[C@H](NC2=Nc3cc(F)ccc3N(CC(F)F)c3ccc(Cl)cc32)C1: -1.49%
O=C(O)C1=CCCNC1: -4.4%
CC(C)=CCC[C@]1(C)C=Cc2c(O)c3c(c(CC=C(C)C)c2O1)O[C@]12C(=C[C@@H]4C[C@H]1C(C)(C)O[C@@]2(C/C=C(/C)C(=O)O)C4=O)C3=O: 3.05%
O=C(/C=C/c1ccc(O)c(O)c1)OCCc1ccccc1: -1.75%
O=C(Nc1ccccc1-c1cn2c(CN3CCNCC3)csc2n1)c1cnc2ccccc2n1: 47%
Cc1sc2c(c1C)C(c1ccc(Cl)cc1)=N[C@@H](CC(=O)Nc1ccc(OCCOCCOCCOCCNc3cccc4c3C(=O)N(C3CCC(=O)NC3=O)C4=O)cc1)c1nnc(C)n1-2 (some centres unmarked): -15.7%
CN1CCC(=C2c3ccccc3CCn3c(C=O)cnc32)CC1: 0.85%
O=C(Nc1ccncc1)c1cc([N+](=O)[O-])ccc1Cl: 4.26%
CCCCN(CCCC)CCC(O)c1cc2c(Cl)cc(Cl)cc2c2cc(C(F)(F)F)ccc12 (centres unmarked): 8.47%

Series 3
Target: Sal-like protein 4, full length isoform A (SALL4, Homo sapiens, UniProt Q9UJQ4, residues 1-1053)
Sequence of UniProt Q9UJQ4 (whole entry, looked up): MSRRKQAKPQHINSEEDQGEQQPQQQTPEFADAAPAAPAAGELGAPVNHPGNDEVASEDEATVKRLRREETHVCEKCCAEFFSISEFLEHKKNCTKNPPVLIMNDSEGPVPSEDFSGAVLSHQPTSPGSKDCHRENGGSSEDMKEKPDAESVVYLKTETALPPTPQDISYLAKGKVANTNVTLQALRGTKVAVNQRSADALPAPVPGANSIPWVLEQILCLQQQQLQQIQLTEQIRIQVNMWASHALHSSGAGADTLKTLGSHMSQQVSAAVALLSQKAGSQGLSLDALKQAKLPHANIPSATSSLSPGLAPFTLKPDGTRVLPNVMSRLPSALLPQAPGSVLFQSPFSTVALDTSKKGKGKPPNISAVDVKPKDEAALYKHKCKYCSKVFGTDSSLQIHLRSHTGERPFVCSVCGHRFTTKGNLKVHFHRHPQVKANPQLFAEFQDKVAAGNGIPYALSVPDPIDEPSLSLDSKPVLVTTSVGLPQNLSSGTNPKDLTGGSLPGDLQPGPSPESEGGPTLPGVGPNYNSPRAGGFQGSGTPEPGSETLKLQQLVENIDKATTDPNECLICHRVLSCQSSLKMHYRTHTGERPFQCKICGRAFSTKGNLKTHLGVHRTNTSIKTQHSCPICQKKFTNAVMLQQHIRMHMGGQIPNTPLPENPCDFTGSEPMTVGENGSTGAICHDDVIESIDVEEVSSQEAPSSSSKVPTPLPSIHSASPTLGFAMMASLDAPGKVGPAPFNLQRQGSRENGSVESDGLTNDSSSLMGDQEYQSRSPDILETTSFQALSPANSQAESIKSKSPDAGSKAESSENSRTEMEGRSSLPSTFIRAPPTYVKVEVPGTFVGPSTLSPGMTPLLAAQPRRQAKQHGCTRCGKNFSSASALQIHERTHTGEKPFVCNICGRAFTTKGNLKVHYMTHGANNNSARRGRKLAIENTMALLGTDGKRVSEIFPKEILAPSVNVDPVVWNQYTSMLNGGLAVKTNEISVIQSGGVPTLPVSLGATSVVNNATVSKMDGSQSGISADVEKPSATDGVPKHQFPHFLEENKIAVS
Method: universal PBM
Molecule type: double-stranded DNA, one strand shown
Sample: in vitro
Concentration: 600 nM
Notes: 8-mer, flanks averaged, mean of replicates
Direction: higher = stronger binding
Measurement: E-score
AGTGCCCA: -0.228
AATTTCAA: 0.283
ATAAATCG: 0.272
TCACTTAA: 0.226
CATGCACC: -0.0713
GCCGCGAC: -0.382
AATGTGGT: 0.175
CGAACATA: 0.233

Series 4
Target: Histone acetyltransferase KAT6A, winged helix 2, GST fusion (KAT6A, Homo sapiens, UniProt Q92794, residues 85-181)
Method: protein binding microarray
Molecule type: double-stranded DNA, one strand shown
Sample: in vitro
Concentration: not given
Notes: 8-mer, flanks averaged, mean of 2 arrays, mostly near background
Baseline: not given
Direction: higher = stronger binding
Measurement: E-score
Residues (chain): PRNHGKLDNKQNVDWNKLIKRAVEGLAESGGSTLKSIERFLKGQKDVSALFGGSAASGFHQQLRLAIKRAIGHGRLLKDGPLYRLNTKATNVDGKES
CTTCCACC: -0.117
GAGTCGTA: -0.193
GCTGTTGA: -0.0193
AAATTATG: 0.0617
GAGCGTTA: -0.078
AATTTCAA: 0.0909
CCGGTGAG: -0.0937
AGATGGAG: 0.151
